Assay results of several laboratories.
Numbered parts are unrelated; each lists some results of a single study. Substitutions count along the parent as printed.
UniProt P62253, sequence (whole entry, looked up): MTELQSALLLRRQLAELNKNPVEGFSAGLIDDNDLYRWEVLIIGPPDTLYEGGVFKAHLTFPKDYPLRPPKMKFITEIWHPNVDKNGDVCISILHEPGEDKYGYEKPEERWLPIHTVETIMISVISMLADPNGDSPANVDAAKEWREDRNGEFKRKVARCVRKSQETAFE
UniProt P51668, sequence (whole entry, looked up): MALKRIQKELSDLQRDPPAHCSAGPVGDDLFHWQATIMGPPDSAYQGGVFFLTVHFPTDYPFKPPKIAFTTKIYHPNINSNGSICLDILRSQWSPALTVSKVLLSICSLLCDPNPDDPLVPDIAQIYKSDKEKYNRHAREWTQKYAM
UniProt P61081, sequence (whole entry, looked up): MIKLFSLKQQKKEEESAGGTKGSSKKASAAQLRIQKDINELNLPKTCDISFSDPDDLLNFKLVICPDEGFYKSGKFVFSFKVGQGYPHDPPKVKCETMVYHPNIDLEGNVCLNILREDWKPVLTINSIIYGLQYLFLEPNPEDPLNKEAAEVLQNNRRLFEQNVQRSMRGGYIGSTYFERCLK
UniProt Q9Y2X8, sequence (whole entry, looked up): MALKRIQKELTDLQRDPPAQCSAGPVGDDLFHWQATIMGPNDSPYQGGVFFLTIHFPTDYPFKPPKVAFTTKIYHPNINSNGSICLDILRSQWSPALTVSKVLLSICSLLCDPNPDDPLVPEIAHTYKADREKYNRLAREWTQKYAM
UniProt P62837, sequence (whole entry, looked up): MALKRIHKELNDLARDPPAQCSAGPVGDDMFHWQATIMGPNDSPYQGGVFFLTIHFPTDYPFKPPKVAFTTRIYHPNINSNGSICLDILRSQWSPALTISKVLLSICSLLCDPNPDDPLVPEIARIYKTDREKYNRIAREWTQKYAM

Block 1
Target: CCND2, cyclin fold, Cln2 fusion (human)
Method: yeast growth competition, sequencing
Medium: yeast
Setting: weak parent motif
Relative to: not given
Reading: higher = stronger binding
Measurement: normalised enrichment score
Parent: CDAN1 docking peptide (human); RGARSQLFPPTEA; partner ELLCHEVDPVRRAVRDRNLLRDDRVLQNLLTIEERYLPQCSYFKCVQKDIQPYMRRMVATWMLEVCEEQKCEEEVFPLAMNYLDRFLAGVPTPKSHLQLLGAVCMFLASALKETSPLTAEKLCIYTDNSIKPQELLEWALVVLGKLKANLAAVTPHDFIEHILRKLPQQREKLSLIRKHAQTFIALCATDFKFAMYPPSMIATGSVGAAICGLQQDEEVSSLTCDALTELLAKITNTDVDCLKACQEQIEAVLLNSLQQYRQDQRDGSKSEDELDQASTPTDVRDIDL
AGARSQLFPPTEA [R1A]: -0.0608
RGARSQLAPPTEA [F8A]: 0.131
RGARSALFPPTEA [Q6A]: -0.541
RGAASQLFPPTEA [R4A]: -0.0476
RGARSQLFPPAEA [T11A]: -0.0636

Block 2
Target: Phosphate system positive regulatory protein PHO4, full length, GST-tagged (PHO4, Saccharomyces cerevisiae, UniProt P07270, residues 1-312)
Method: competition protein-binding microarray
Form: double-stranded DNA, one strand shown
Medium: in vitro
Concentration: 2 µM
Setting: whole 60-bp probe, lowest competitor level
Added: Cbf1 competitor, 0.05 µM
Reading: higher = stronger binding
Measurement: fluorescence intensity
All sequences stand within: … GTCTTGATTCGCTTGACGCTGCTG
Construct (chain): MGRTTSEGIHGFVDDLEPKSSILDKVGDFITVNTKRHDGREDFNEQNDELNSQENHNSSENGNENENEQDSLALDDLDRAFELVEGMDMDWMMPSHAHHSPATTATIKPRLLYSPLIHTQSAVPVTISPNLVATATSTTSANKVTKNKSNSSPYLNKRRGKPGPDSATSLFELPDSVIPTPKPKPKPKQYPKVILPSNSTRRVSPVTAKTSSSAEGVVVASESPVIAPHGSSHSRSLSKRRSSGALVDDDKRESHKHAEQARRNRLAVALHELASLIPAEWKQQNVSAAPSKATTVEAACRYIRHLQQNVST
CGGGGTTAAGTTTGGGTTGTGGGTGGCTTGCAGCAG: 5460 a.u.
ACTAGAAGAAATCCGCACGTGTAACCAAAAATAGAG: 18100 a.u.
AAATTACTAAGTTGGTGGGTGGGTGACGCCGTATGA: 4430 a.u.
CATACCCAACCTTGTCACAAGACTTAAGATATTTGT: 4170 a.u.
TTGGATCTGCAAAATCACATGATTGCCCCAGTACTT: 5180 a.u.
CGAAGTTTGCGGCGTCACATGATAAAATTCCATTAT: 6380 a.u.
CTTTCCCGATCTTTTCACGTGGACTTAGCACATTTG: 13100 a.u.
GTCCACACATTGTTCCACGTGTAGCTTACCCATGTA: 15700 a.u.
CTTCTGTAAATTTTTCACGTGCCGTGAAGCGCCCCG: 12200 a.u.
CTTCCAACAAACCATCACGCTGTCGTATCTCAATTG: 6630 a.u.
TGCGCAACAACTTTTCACGTGGCGTTATGTCTAGAA: 13300 a.u.
TCATATGTAGATAATAAACCTGCTATAAAACTGTCT: 3940 a.u.
TATTGCGGTTGTTGCCACGCTTGTCGCCAGGGTTGT: 6110 a.u.
GTAGAGGTTAACGGTTCCGTGATGGAACCCATTTCT: 2960 a.u.

Block 3
Target: Ras GTPase-activating protein-binding protein 1, C-terminal RGG region (G3BP1, Homo sapiens, UniProt Q13283)
UniProt Q13283, sequence (whole entry, looked up): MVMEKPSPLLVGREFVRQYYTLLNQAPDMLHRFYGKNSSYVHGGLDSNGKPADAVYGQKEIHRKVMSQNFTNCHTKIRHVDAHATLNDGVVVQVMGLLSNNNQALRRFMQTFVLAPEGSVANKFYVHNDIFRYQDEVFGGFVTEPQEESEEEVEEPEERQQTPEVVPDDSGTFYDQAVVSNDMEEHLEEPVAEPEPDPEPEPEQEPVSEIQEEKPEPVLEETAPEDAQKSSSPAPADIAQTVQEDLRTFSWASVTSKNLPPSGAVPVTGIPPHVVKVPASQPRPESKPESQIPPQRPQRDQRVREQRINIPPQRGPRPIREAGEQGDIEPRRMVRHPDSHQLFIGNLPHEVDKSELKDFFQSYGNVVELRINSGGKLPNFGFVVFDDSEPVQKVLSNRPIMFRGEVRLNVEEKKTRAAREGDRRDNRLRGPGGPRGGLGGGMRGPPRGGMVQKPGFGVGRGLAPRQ
Method: RNA Bind-n-Seq
Form: RNA
Medium: in vitro
Concentration: 1 µM
Setting: whole 134-nt RNA, ends assumed
Added: 150 mM KCl
Relative to: input library
Reading: higher = stronger binding
Measurement: log2 enrichment
All sequences stand within: GGGAGUUCUACAGUCCGACGAUC … UGGAAUUCUCGGGUGUCAAGG
AAGUCCUGUGCUACACAUCGUAUGUACCGAAUCGGGGUUUGGGGAGGGGAAAGGGGAAAGUAUUAUGUUACGCCGUUCGGAUCUGCACUU: 2.37
CACAGACAACACGCACCCACACAGACACAGAGGGAAGGGGUUGGGAUGGGGACAGGGUGCACAGCAGGGCGGGGUGGGACCCCAGCCCCU: -0.884
CCUGUGCUACACAUCGUAUGUACCGAAUCGGGCCCCCCCGGCCCCCCCGGCCCCCCCGGGAAAGUAUUAUGUUACGCCGUUCGGAUCUGC: -1.97
UCAAGUCCUGUGCUACACAUCGUAUGUACCGAAUCGGUUUGGGUUUGGUUUGGGGAAAGUAUUAUGUUACGCCGUUCGGAUCUGCACUUC: -1.07
CUCAAGUCCUGUGCUACACAUCGUAUGUACCGAAUCGGUGGAAAAAGGAAAGGAAAGUAUUAUGUUACGCCGUUCGGAUCUGCACUUCCA: -1.09
UUAUUCUGUGUGACACCUGCCCUCGUGCCUACCACCUCGUCUGCCUUGAUCCUGAGCUUGACCGGGCUCCAGAGGGCAAAUGGAGCUGCC: 0.68
GUCCUGUGCUACACAUCGUAUGUACCGAAUCGGGGCCCCCGGCCCCCGGGCCCCCGGGGAAAGUAUUAUGUUACGCCGUUCGGAUCUGCA: -1.81
UAAGUUUAGAGGAGGAUCUGAUGGAUAUGGCAGUGGACGUGGAUUUGGGGAUGGCUAUAAUGGGUAUGGAGGAGGACCUGGAGGUGGCAA: 0.704
UCCUCAAGUCCUGUGCUACACAUCGUAUGUACCGAAUCGGAGGGAGGGGAGGAAAGUAUUAUGUUACGCCGUUCGGAUCUGCACUUCCAG: -0.607
AGUCCUGUGCUACACAUCGUAUGUACCGAAUCAAAUUUAAAUUUUUUUAAACCCAAAAAAGUAUUAUGUUACGCCGUUCGGAUCUGCACU: -1.35
UGGCCCUGGUGGCAUGCGGGGAGGAAGAGGUGGCCUCCUGGAUCGUGGUGGUCCCGGUGGAAUGUUCAGAGGUGGCCGUGGUGGAGACAG: 2.14
CUGUGCUACACAUCGUAUGUACCGAAUCGGGGUUUUUUUGGGUUUUUUUGGGGUUUUUUUGGAAAGUAUUAUGUUACGCCGUUCGGAUCU: -1.09
UCAAGUCCUGUGCUACACAUCGUAUGUACCGAAUCGGUGGAAAAAAAGGUUUGGAAAGUAUUAUGUUACGCCGUUCGGAUCUGCACUUCC: -1.43
CCUGUGCUACACAUCGUAUGUACCGAAUCGGUUUUUUGGGUUUUUUGGGGUUUUUUGGGGAAAGUAUUAUGUUACGCCGUUCGGAUCUGC: -1.54

Block 4
Target: Sal-like protein 4, full length isoform A (SALL4, Homo sapiens, UniProt Q9UJQ4, residues 1-1053)
UniProt Q9UJQ4, sequence (whole entry, looked up): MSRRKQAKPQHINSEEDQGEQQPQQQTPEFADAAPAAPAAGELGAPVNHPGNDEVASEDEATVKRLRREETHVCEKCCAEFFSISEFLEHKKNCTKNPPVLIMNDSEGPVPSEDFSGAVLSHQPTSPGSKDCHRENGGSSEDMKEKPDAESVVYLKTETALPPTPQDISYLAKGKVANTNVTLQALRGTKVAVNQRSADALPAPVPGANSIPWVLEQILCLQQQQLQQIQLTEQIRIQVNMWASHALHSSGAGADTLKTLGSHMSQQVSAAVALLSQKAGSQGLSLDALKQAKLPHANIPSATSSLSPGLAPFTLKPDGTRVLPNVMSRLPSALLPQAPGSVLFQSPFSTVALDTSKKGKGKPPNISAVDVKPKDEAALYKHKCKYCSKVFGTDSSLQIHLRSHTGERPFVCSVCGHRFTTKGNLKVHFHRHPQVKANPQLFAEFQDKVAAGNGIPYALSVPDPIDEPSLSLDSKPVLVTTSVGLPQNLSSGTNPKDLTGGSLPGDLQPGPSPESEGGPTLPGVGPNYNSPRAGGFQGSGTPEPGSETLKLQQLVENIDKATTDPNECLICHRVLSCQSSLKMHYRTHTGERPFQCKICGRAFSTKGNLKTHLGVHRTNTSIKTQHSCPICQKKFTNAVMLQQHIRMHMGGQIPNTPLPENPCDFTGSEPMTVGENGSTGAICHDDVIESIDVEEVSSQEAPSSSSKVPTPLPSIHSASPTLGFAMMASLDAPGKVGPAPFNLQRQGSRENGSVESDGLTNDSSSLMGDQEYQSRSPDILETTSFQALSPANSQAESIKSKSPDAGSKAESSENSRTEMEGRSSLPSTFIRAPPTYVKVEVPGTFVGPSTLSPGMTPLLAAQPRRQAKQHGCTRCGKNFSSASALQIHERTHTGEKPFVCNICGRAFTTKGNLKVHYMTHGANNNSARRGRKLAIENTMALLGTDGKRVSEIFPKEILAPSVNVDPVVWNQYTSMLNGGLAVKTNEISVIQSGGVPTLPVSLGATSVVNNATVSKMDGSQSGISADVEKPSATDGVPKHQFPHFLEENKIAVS
Method: universal PBM
Form: double-stranded DNA, one strand shown
Medium: in vitro
Concentration: 600 nM
Setting: 8-mer, flanks averaged, mean of replicates
Reading: higher = stronger binding
Measurement: E-score
ATTGGTAA: 0.172
CAAAGATC: 0.0657
CGCTATTA: 0.175
GATAACGA: 0.222
ATTGTTGG: 0.143
CCTGCAAG: -0.23
AAGCTAGG: -0.277
GCCCCGCC: -0.222
GAACCGGA: -0.161
CTGGAAGC: -0.288
CCAGTTAG: -0.0879
CTGGAGGA: -0.0467
ATTTTCGG: 0.194
AACTGCCA: -0.131
ATTGCTTA: 0.318
GGCCTCGA: -0.261
GCGAGAAC: -0.168
AAGGTCCA: -0.0661

Block 5
Target: RNA binding protein fox-1 homolog 2, RRM domain, GST-SBP tag (RBFOX2, Homo sapiens, UniProt O43251-10, residues 100-194)
Method: RNA Bind-n-Seq
Form: RNA
Medium: in vitro
Concentration: 365 nM
Setting: natural RNA segment, single round, ends assumed
Relative to: no-protein control
Reading: higher = stronger binding
Measurement: RBNS enrichment (R)
All sequences stand within: GGGAGUUCUACAGUCCGACGAUC … UGGAAUUCUCGGGUGCCAA
Residues (chain): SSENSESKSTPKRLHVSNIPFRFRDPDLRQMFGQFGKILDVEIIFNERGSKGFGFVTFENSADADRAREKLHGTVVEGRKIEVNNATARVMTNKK
CCAUCGGAUUGAACAUACACUGUAUAUUUUGCAAUAGUUACCUCAAGGCCUACUGACCAAAUUGUUGUGUCGAGAUAUUUAACUUUUGCCAAAUAAAAUAUAUUGAUUCU: 0.304
ACGGAGACCCUUCUUGUUGAAGGGGCCUGCUGCUAGUAACCUUUGCAAUGUUCUGCUUUUAAUAUGUGUCAAAUGGGAGUCUGGAAACUGUAAUAAAGAUGAUUGUAUCC: 0.703
GCGACCUCACACAGCCUCUGCAGAUGGAUCCCUGCACGCCUCUUUCUGAUGAAGUGAUUGUAGUAGGUGUCUGUAGCUAGUCUUCAAGACCACACCUGGAAGAGUUUCUG: 0.377
UAUACCUAUUACAUUUCCAGGCAGUAUCCCUAAGAUGAGAUCCUGGAGAAAGGACUAGGGGAAGUAUCUUUCUGGAUGCUUGUGGUCCCAGAAGGGUACUUUCUGUGUCA: 1.89
AGACAUUCCAGAAUUGUCAUGAUGUUUACACUGUCUGAGUUAAAAAUCCUGUUCAAGAAAAAAAAAGAUUUUGUAUCACUUCUUAAAAAGGAAUAUUCAUAGCACUUGUC: 0.731
AGUUUGGCUAGAUCUUAAAGCUGUUUUGGUAAUUAAUGUCUUGUGACAUUUAAUAAUGACUUAGCAAGCAUUGGAUUUUUUUUUUUUGUUGUUCUUGUUAGCUAAAGCAC: 1.3
UCCUGUCUGAUGCAUCCUUGAUGGCAAGCUUCAAAUCUGAUUUGGUAUCACCGAGGAAACCUUGCCCCCAUCACUCAGCAUUGCACUUAGAUACAGAAUGAGUUAGAUAA: 0.948
AGCCUUCAGAUGCCCAUCGUGUGAGAGGCGCUGCCUGUUGAUGAAGUGUGUGACCUUUUCUCCUGCUGAGUGGGAGAUCCCAGGGUCCCACACGCCUCACCUCGGUGAGU: 0.272
UAGGCUUCUAUGAAUUCAGCCUGUUUCUAAAAGCUGAAAAUCUCAGUUUAAAAAUCAAAAUGUUAACACAAAGCUAAGAUUCAUCAGAGCCCACCCUAUUCUAAGGAACC: 0.264
CCUGAGCAUUCGCAAAGCUCGCUUCUCCAGGGAGCCUCCUCUUGGCUUUGGAAAAGAGCCCAGGGACUUAACGUGCUGCCUGUUGUACUCUGUCCCCUCAUGACUUUUUA: 0.632
UUUUAAGAUAAAAACUGCACAAAAGGGGAGUGAGAGAGACUAGUUUCCACAUCCUUCCCUCCUUUAGUGAAGCCCCCGAGGUUGUGUCCAGGGUGAUGAGUGUGGACGGG: 0.852
AUAGAAAAAGAAAUGGCCUCAGUUUGAUCUCGUUCAGAAUGACCCAGAUUGUUUCUGCUUUGGGUGCAGCUGUUUAGUUCAGAGUUAUAUUACAGAGAAUUAUUUUCUGA: 0.894

Block 6
Sequence: B1 (TRIM62 RING domain)
Method: yeast two-hybrid
Medium: yeast
Setting: mostly zero background
Relative to: not given
Reading: higher = stronger interaction
Measurement: lacZ reporter activity
B1: TRIM62 RING domain (UniProt Q9BVG3); chain MACSLKDELLCSICLSIYQDPVSLGCEHYFCRRCITEHWVRQEAQGARDCPECRRTFAEPALAP
UBE2D4 UBC core domain (UniProt Q9Y2X8): 0
UBE2D2 UBC core domain (UniProt P62837): 0
UBE2D1 UBC core domain (UniProt P51668): 0
UBE2G1 UBC core domain (UniProt P62253): 0
UBE2M UBC core domain (UniProt P61081): 0

Some of these lines once more (block 5):
UUUUAAGAUAAAAACUGCACAAAAGGGGAGUGAGAGAGACUAGUUUCCACAUCCUUCCCUCCUUUAGUGAAGCCCCCGAGGUUGUGUCCAGGGUGAUGAGUGUGGACGGG: 0.852
AUAGAAAAAGAAAUGGCCUCAGUUUGAUCUCGUUCAGAAUGACCCAGAUUGUUUCUGCUUUGGGUGCAGCUGUUUAGUUCAGAGUUAUAUUACAGAGAAUUAUUUUCUGA: 0.894
AGCCUUCAGAUGCCCAUCGUGUGAGAGGCGCUGCCUGUUGAUGAAGUGUGUGACCUUUUCUCCUGCUGAGUGGGAGAUCCCAGGGUCCCACACGCCUCACCUCGGUGAGU: 0.272
CCAUCGGAUUGAACAUACACUGUAUAUUUUGCAAUAGUUACCUCAAGGCCUACUGACCAAAUUGUUGUGUCGAGAUAUUUAACUUUUGCCAAAUAAAAUAUAUUGAUUCU: 0.304
UCCUGUCUGAUGCAUCCUUGAUGGCAAGCUUCAAAUCUGAUUUGGUAUCACCGAGGAAACCUUGCCCCCAUCACUCAGCAUUGCACUUAGAUACAGAAUGAGUUAGAUAA: 0.948
UAGGCUUCUAUGAAUUCAGCCUGUUUCUAAAAGCUGAAAAUCUCAGUUUAAAAAUCAAAAUGUUAACACAAAGCUAAGAUUCAUCAGAGCCCACCCUAUUCUAAGGAACC: 0.264
ACGGAGACCCUUCUUGUUGAAGGGGCCUGCUGCUAGUAACCUUUGCAAUGUUCUGCUUUUAAUAUGUGUCAAAUGGGAGUCUGGAAACUGUAAUAAAGAUGAUUGUAUCC: 0.703
UAUACCUAUUACAUUUCCAGGCAGUAUCCCUAAGAUGAGAUCCUGGAGAAAGGACUAGGGGAAGUAUCUUUCUGGAUGCUUGUGGUCCCAGAAGGGUACUUUCUGUGUCA: 1.89
GCGACCUCACACAGCCUCUGCAGAUGGAUCCCUGCACGCCUCUUUCUGAUGAAGUGAUUGUAGUAGGUGUCUGUAGCUAGUCUUCAAGACCACACCUGGAAGAGUUUCUG: 0.377
